Measurements pooled from the literature.
Each line is one published result; not all experiments were run side by side. Several values in a cell are separate wells, animals, samples, runs or records.

Compound	target or system	assay	system	setting	scale	quantity	value
C=C(NC(=O)c1csc(-c2nc3c(cc2O)-c2nc(cs2)C(=O)NC(C(C)O)C(=O)NC(=C(C)OC)c2nc(cs2)C(=O)NC2c4nc(cs4)C(=O)NC(COC(=O)c4c5c6c(cccc6n4O)COC(=O)C(OC4CC(C)(O)C(N(C)C)C(C)O4)C2OC5)c2nc-3cs2)n1)C(N)=O (stereo not drawn)	–	–	cynomolgus monkey, female, plasma	intravenous infusion, 3 mg/kg, multiple doses, day 7	–	AUC(0-inf)	25400 ng·h/mL
Cc1nn(-c2nc3c(F)cc(F)cc3s2)c(O)c1C(c1ccc(C(F)(F)F)cc1)c1c(C)nn(-c2nc3c(F)cc(F)cc3s2)c1O	–	–	ICR mouse	intraperitoneal, 10 mg/kg, 0.75 h	–	plasma concentration	2640 ng/mL and 4320 ng/mL and 2170 ng/mL
C[C@]12C[C@H](c3ccc(S(C)(=O)=O)cc3)C3=C4CCC(=O)C=C4CC[C@H]3[C@@H]1CC[C@@]2(O)C(F)(F)C(F)(F)F	–	measured: compound (parent)	healthy human volunteers, pooled plasma	oral, 5 mg daily, day 28, 4 h	–	plasma concentration	23.5 ng/mL
CCC(=O)N(C)c1ccc(Cl)c(Cl)c1	–	LC-MS/MS	mouse C57BL/6 female, plasma	subcutaneous, 2 mg/kg, 1 h	–	plasma concentration	14.6 ng/mL and 89.2 ng/mL and 147 ng/mL
Cc1ncsc1-c1ccc(C(C)NC(=O)C2CC(O)CN2C(=O)C(NC(=O)CCCCCCCCCCN2CCCC(Nc3ncc(Cl)c(Nc4ccccc4S(=O)(=O)C(C)C)n3)C2)C(C)(C)C)cc1 (stereo not drawn)	22Rv1	RNA-seq, measured: RPP38 mRNA	–	concentration not given	relative to: DMSO	log2 fold change	-1.13
O=C(NS(=O)(=O)c1cccs1)c1cc2ccccc2n1Cc1ccc(Br)c2ccccc12	–	–	Sprague-Dawley rat, male	oral, 2 mg/kg, 24 h	–	plasma concentration	3.88 ng/mL and 3.31 ng/mL
COC1CN([C@H]2CC[C@H]([C@@]3(C)Oc4c(Cl)cc(C(=O)NCc5c(SC)cc(C)[nH]c5=O)c(C)c4O3)CC2)C1	–	RNA-seq, measured: LRRC2 mouse homolog	mouse, HT-1376 xenograft, whole blood	dose not given	relative to: vehicle	log2 fold change	2.52
Nc1ncc(-c2cc(-c3cnn(CC(F)(F)F)c3)ncc2F)nc1C(=O)NC1CNCC(F)C1 (stereo not drawn)	MKNK2	KINOMEscan	–	1 µM	relative to: control	remaining binding	7.7%
Cc1noc(C)c1Cn1cc(N2C(=O)CN(Cc3cccc(OS(=O)(=O)O)c3)C2=O)cn1	–	–	Sprague-Dawley rat, male	oral, 30 mg/kg of parent drug, 0.5 h	–	plasma concentration	4620 ng/mL
C=C[C@]1(C)C[C@@H](OC(=O)CSc2ccc(NC(=O)c3ccco3)cc2)[C@]2(C)[C@H](C)CC[C@]3(CCC(=O)[C@H]32)[C@@H](C)[C@@H]1O	–	–	Mycoplasma gallisepticum-infected chickens, plasma	intramuscular, 5 mg/kg, 1 h	–	plasma concentration	309 ng/mL and 344 ng/mL and 256 ng/mL and 378 ng/mL and 328 ng/mL and 338 ng/mL and 374 ng/mL and 382 ng/mL
Cc1noc(C)c1Cn1cc(N2C(=O)CN(Cc3cccc(O[C@@H]4O[C@H](C(=O)O)[C@@H](O)[C@H](O)[C@H]4O)c3)C2=O)cn1	–	–	Sprague-Dawley rat, male	oral, 30 mg/kg of parent drug, 4 h	–	plasma concentration	1920 ng/mL
Cc1ncsc1-c1ccc(CNC(=O)[C@@H]2C[C@@H](O)CN2C(=O)[C@@H](NC(=O)COCC(C)(COCCOCCOCCNC(=O)C[C@@H]2N=C(c3ccc(Cl)cc3)c3c(sc(C)c3C)-n3c(C)nnc32)COCCOCCOCCNC(=O)C[C@@H]2N=C(c3ccc(Cl)cc3)c3c(sc(C)c3C)-n3c(C)nnc32)C(C)(C)C)cc1	–	–	male C57BL/6 mice, plasma	intravenous, 5 mg/kg, 1 h, 20-fold diluted sample	–	plasma concentration	4490 ng/mL and 5100 ng/mL

Excerpt of the above:
Compound	target or system	assay	system	setting	scale	quantity	value
Cc1nn(-c2nc3c(F)cc(F)cc3s2)c(O)c1C(c1ccc(C(F)(F)F)cc1)c1c(C)nn(-c2nc3c(F)cc(F)cc3s2)c1O	–	–	ICR mouse	intraperitoneal, 10 mg/kg, 0.75 h	–	plasma concentration	2640 ng/mL and 4320 ng/mL and 2170 ng/mL
Nc1ncc(-c2cc(-c3cnn(CC(F)(F)F)c3)ncc2F)nc1C(=O)NC1CNCC(F)C1 (stereo not drawn)	MKNK2	KINOMEscan	–	1 µM	relative to: control	remaining binding	7.7%
